Measured values from different studies.
Each numbered part is a random draw from the data of one study; scales do not carry over between parts.

Study 1
Target: Histone acetyltransferase KAT6A, both winged helices, GST fusion (KAT6A, Homo sapiens, UniProt Q92794, residues 1-181)
Technique: protein binding microarray
Form: double-stranded DNA, one strand shown
Matrix: in vitro
Concentration: not given
Notes: 8-mer, flanks averaged, mean of 2 arrays, mostly near background
Baseline: not given
Reading: higher = stronger binding
Endpoint: E-score
Residues (chain): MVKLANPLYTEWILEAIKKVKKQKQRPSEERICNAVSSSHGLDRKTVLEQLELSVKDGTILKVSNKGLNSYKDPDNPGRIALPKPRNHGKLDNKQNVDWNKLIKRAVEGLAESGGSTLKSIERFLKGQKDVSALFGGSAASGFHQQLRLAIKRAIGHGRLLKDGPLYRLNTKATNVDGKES
TCCTGACA: -0.205
ACCAGTAA: -0.0787
GGGCACAC: -0.185
CTTATGCA: -0.155
AGGGTGGA: -0.284

Study 2
Target: Protein C-ets-1 (ETS1, Homo sapiens, UniProt P14921, residues 1-441, K379A, full length assumed)
UniProt P14921, sequence (whole entry, unmodified, looked up): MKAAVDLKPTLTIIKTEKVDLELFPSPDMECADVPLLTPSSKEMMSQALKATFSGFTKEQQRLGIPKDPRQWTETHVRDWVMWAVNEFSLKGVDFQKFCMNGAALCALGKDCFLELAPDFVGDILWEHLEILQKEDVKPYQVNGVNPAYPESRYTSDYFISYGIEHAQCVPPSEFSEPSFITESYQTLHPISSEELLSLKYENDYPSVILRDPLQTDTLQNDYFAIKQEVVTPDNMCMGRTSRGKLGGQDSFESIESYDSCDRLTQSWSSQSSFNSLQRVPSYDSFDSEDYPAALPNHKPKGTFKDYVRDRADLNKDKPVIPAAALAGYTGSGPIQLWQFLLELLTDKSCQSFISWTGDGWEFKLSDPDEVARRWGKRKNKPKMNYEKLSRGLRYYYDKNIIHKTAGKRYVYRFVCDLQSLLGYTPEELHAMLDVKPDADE
Technique: protein-binding microarray
Form: double-stranded DNA, one strand shown
Matrix: in vitro
Concentration: not given
Notes: k-mer, scored over probes, only values ≥0.25
Reading: higher = stronger binding
Endpoint: E-score
ACCGACCG: 0.319
ACCGGCAC: 0.397
ACCGCCAC: 0.264
AGTACCGC: 0.265
ATTATGTG: 0.27
TATCATGA: 0.296

Study 3
Target: Interferon regulatory factor 3, full length, phosphomimetic (IRF3, Homo sapiens, UniProt Q14653, residues 1-427, S386D/S396D/S398D/S402D/T404D/S405D)
Technique: protein-binding microarray
Form: double-stranded DNA, one strand shown
Matrix: in vitro
Concentration: 2540 nM top
Notes: 60-bp whole probe
With: salmon DNA 0.4 mg/ml
Baseline: random background probes
Reading: higher = stronger binding
Endpoint: fitted relative affinity
All sequences stand within: GCCTAGCAC … GTCTTGATTCGCTTGACGCTGCTG
Residues (chain): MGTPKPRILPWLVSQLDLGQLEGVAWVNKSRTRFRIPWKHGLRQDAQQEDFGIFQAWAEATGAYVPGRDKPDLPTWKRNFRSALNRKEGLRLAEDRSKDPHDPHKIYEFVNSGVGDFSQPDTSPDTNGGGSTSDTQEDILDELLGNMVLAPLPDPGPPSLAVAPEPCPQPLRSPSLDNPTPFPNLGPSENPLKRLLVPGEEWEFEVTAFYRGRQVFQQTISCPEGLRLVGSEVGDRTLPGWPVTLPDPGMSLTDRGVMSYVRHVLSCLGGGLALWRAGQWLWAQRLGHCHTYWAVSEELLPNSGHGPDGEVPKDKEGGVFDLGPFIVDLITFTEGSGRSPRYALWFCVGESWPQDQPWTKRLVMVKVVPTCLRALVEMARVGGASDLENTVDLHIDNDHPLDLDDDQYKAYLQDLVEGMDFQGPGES
GACGAACTGAGTTTCGAAACGTGCTAG: 2.83 z-score
TTAGATTCCAGTTTCGATGAGTGCTAG: 3.96 z-score
TTAGATCTCAGTTTCGACTAGTGCTAG: 1.88 z-score
GACGATTTCGGGTTTCTAGACGTGCTA: 2.61 z-score
CTCTGTCCCTGTTTCTACTGGTGCTAG: 0.972 z-score

Mixed results
PhoQ, residues 284 288 289 292 302 303 QWQEDG — fold induction (PhoP, residues 12 14 15 18 19 HEGLL (Escherichia coli, UniProt P23836); Sort-seq, refers to: YFP reporter; E. coli; PhoQ-PhoP variant library, with: 10 µM Mg2+; baseline: high Mg2+ state, higher = stronger signaling): 0.782

A few entries again (study 3):
TTAGATCTCAGTTTCGACTAGTGCTAG: 1.88 z-score
GACGATTTCGGGTTTCTAGACGTGCTA: 2.61 z-score
GACGAACTGAGTTTCGAAACGTGCTAG: 2.83 z-score
